Literature values, collected from citations in different studies.
Compare with care: the assays were run in different laboratories. ± gives the spread as reported. Converted amounts (≈) assume the structure as drawn.

SMILES = COc1ccccc1Oc1cccc(CN2CCC(NC(=O)C(CCN3CCCC3)c3ccccc3)CC2)c1 (stereo not drawn); target or system = human CCR8 Q91W mutant (TM2); assay = IP accumulation, agonist; measurement = EC50; result = 161 nM
SMILES = FC(F)(F)c1ccc(Nc2ccnc3nc(-c4ncccc4C(F)(F)F)ccc23)nc1; target or system = TRPV1; assay = calcium flux, antagonist; system = HEK293; conditions = added: capsaicin; measurement = IC50; result = 2.2 nM
SMILES = COc1ccccc1Oc1cccc(CN2CCC(NC(=O)C3CC(=O)Nc4ccccc43)CC2)c1 (stereo not drawn); target or system = human CCR8 Q91W mutant (TM2); assay = IP accumulation, agonist; measurement = EC50; result = 201 nM
SMILES = C[C@H]1COCCN1c1nc(-c2cnc(N)cc2C(F)F)nc(N2CCOCC2)n1; target or system = U-2 OS; measurement = GI50; result = 311 nM
SMILES = Cc1c(C#N)cccc1[C@@H](C)Nc1nnc(C)c2cnc(N3CCOCC3)cc12; target or system = NCI-H1975; assay = ERK phosphorylation, In-Cell Western, measured: phospho-ERK; measurement = IC50; result = 39.8 ± 15 nM
SMILES = CNC(C)C1CCC(N)C(OC2C(N)CC(N)C(OC3OCC(C)(O)C(NC)C3O)C2O)O1 (stereo not drawn); target or system = Escherichia coli; system = clinical isolate RKI-No_514/16; measurement = MIC; result = 2 mg/L (≈ 4.19 µM)
SMILES = O=C(Nc1cccc2cnccc12)NC1CCc2c(Cl)cccc2C1Cc1ccccc1 (stereo not drawn); target or system = TRPV1; assay = calcium flux, antagonist; system = HEK293; conditions = added: capsaicin; measurement = IC50; result = 16 nM
SMILES = CC1(C)S[C@@H]2[C@H](NC(=O)[C@H](N)c3ccccc3)C(=O)N2[C@H]1C(=O)O; target or system = Enterobacter cloacae; system = clinical isolate RKI-No_215/15; measurement = MIC; result = 16 mg/L (≈ 45.8 µM)
SMILES = FC(F)(F)c1ccc(Nc2nc(N3CCN(C4CCC4)CC3)nc3c2CCN(c2ncccc2C(F)(F)F)CC3)cc1; target or system = TRPV1; assay = calcium flux, antagonist; system = HEK293; conditions = added: capsaicin; measurement = IC50; result = 24 nM
SMILES = Nc1cc(C(F)(F)F)c(-c2nc(N3CCOCC3)nc(N3CCOCC3)n2)cn1; target or system = SW48; measurement = GI50; result = 175 nM
SMILES = COc1ccccc1Oc1cccc(CN2CCC3(CC2)C(=O)NCN3CCc2ccccc2)c1; target or system = human CCR8 V109A mutant (TM3); assay = IP accumulation, agonist; measurement = EC50; result = 7.7 nM
SMILES = O=C(CCc1ccc(Cl)cc1)Nc1cccc2ccc(O)cc12; target or system = TRPV1; assay = calcium flux, antagonist; system = HEK293; conditions = added: capsaicin; measurement = IC50; result = 21 nM

Some of these lines once more:
SMILES = Cc1c(C#N)cccc1[C@@H](C)Nc1nnc(C)c2cnc(N3CCOCC3)cc12; target or system = NCI-H1975; assay = ERK phosphorylation, In-Cell Western, measured: phospho-ERK; measurement = IC50; result = 39.8 ± 15 nM
